Measurements from different studies.
Parts stem from different laboratories: compare values within a part only. Positions count from the first letter of the parent shown.

Sample 1
Target: HLA class I histocompatibility antigen, A alpha chain, allele A*80:01 (Homo sapiens, UniProt P04439)
Observed: peptide-MHC binding
Form: peptide
Reading: direction not given
Quantity: z-score of log IC50
AVEDFLAFF: 0.38
CERYGFPAS: 0.38
FRYKSRCYV: 0.38
GIALAVPCV: 0.38
FVMPIFEQI: 0.38
CRTAFKPVL: 0.38
FLSFASLFL: 0.38

Sample 2
Target: Hepatocyte nuclear factor 3-alpha (Foxa1, Mus musculus, UniProt P35582, residues 1-468, full length assumed)
UniProt P35582, sequence (whole entry, looked up): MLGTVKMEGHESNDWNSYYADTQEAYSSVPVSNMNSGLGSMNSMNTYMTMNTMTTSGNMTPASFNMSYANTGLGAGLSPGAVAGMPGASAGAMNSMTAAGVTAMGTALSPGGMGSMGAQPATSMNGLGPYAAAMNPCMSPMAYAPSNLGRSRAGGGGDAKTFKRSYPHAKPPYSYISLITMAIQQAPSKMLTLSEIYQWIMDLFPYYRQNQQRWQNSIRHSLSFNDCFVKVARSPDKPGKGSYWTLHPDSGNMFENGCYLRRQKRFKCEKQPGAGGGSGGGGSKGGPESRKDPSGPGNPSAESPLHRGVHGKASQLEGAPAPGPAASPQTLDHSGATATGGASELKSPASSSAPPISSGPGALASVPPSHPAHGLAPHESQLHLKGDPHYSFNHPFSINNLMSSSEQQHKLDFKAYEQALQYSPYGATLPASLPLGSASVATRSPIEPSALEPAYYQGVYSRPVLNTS
Technique: EMSA with sequencing
Form: double-stranded DNA, one strand shown
Medium: in vitro
Tested at: 10 and 20 nM
Setting: whole designed probe, mean of two concentrations, ends assumed
Baseline: negative control set to 0
Reading: higher = stronger binding
Quantity: normalised bound fraction
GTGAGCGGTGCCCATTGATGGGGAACTGTATCCATCTGGGCAGTATCTTCTCTGGGCCTGGCCTGTCATAGGTGCTTCAGGTTTCCCCATTTGAACCAGATACCAGTCGGGTTACCGGATGTTTGCTTAAAATGAGTCGGCTTCCTGCTATAATTCCTGTGCTGCTTCCAGCTAGGACTGATCGAATCAGTCTGGATTTTCCTTGGGGTGATCCGCAGGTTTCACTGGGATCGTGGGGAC: 0.13 ratio
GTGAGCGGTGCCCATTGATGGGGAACATGTGCTAAAAATACAAGACTTGCTTACGCAGAGAGCCGGGAGCTATGTTCCAGTGAGGGTGGAAACAAAAGCCTCAGTATAAGACTGTCAGGAGATTACACAAGGGTGTGGTTTGCTCATGTGGCAACACGAGGTTGCTGGACTCCACATGCTGAGGCTCAAAGTAGAAATCACTGATCTTATGTCACATATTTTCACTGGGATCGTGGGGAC: 0.0239 ratio
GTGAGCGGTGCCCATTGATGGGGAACATCTCGTAACAAATGGCTTCAGGGTGTTCAGCTGTTCTGCAGCTATGCTGAGGAATTCCTGCCTGTACAAAAGTCACTGTTCCAAGTCCTGTTAGATTACATTTTACTAATAAACCTCTGCCTCTGTGCTTAGCCTGAGGGGCTGCAGAGCTCCACACCCAGGAGTGGGCCCTCTGGGGATGCTGGGGTTTGATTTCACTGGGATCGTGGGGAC: -0.0469 ratio
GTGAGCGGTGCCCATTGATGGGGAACATATTTTACATACGTGTATTAAATATATATATATATAAATGTCTCCTGTTCTTTTTCAGTAATCATAGTGTTTTTACAATTATCTGTTACTATGTAATCTTTTATTTCAAGGCATTGGTCACGTTACCTACCTACTCTTCCAGGGAATGGACATGCAGATTGCCTTCATACCCTCCCACCACAGGAAATGCTGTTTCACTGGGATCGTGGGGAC: 0.0421 ratio
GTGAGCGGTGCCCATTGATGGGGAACAATCAGTTCAAAATAAAAAATATAAACCATTCAAGGAAACAAACTCTACATCATCCTAGGCCATCGTCAATTAGGGAAAGTCAGTAGGCAGAGTAAACAGGAAAATGTGTGCCTCACAATTTGAGATAATAGGACACTGAAAAATAAACTATAAAATTTGTGGCCGGGTGCAGTGGCTCACACCTGTAATCCCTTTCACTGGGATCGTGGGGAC: 0.164 ratio

Sample 3
Target: Mu-type opioid receptor (OPRM1, Homo sapiens, UniProt P35372)
UniProt P35372, sequence (whole entry, looked up): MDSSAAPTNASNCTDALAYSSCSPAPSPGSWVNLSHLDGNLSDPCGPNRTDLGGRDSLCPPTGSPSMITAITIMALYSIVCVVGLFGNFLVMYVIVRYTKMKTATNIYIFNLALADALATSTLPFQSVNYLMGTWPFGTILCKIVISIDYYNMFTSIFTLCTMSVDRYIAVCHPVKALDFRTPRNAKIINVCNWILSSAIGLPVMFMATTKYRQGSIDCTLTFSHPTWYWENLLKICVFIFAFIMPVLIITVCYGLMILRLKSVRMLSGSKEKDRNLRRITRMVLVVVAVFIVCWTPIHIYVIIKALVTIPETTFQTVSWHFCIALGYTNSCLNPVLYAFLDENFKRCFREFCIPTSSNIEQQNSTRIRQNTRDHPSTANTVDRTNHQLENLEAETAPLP
Observed: ligand displacement
Tested at: 10 µM
Quantity: inhibition
Cc1noc([C@H]2C[C@@H](c3ccc(C(F)(F)F)cc3)CN(C(=O)N3CCS(=O)(=O)C3)C2)n1: 2.23%
NC(=O)c1ccc2nc(-c3ccc(C4(N)CCC4)cc3)c(-c3ccccc3)n2n1: 31.1%
CN1CCN(C(=O)C(C)(C)c2ccc(C(=O)Nc3cn4cc(-c5cc(C(C)(C)C)cc(C(C)(C)C)c5)ccc4n3)cc2)CC1: 55.7%
C[C@H](c1ccc(F)cc1)N(Cc1cccc(C(=O)O)c1)C(=O)c1cnc2ccccc2c1: 1.23%
O=C(NCCCC1CCCCC1)c1ccc(CNC(=O)c2cnn(-c3ccccc3)c2C(F)(F)F)cc1: 19.4%
COc1cc(N[C@@H]2CCCC[C@]2(O)C(F)(F)F)ccc1F: 10.3%

Sample 4
Target: CCNF, cyclin fold, Cln2 fusion (human)
Technique: yeast growth competition, sequencing
Medium: yeast
Setting: strong parent motif
Baseline: not given
Reading: higher = stronger binding
Quantity: normalised enrichment score
Parent: viral docking peptide; YKVKRRLVFGADD; partner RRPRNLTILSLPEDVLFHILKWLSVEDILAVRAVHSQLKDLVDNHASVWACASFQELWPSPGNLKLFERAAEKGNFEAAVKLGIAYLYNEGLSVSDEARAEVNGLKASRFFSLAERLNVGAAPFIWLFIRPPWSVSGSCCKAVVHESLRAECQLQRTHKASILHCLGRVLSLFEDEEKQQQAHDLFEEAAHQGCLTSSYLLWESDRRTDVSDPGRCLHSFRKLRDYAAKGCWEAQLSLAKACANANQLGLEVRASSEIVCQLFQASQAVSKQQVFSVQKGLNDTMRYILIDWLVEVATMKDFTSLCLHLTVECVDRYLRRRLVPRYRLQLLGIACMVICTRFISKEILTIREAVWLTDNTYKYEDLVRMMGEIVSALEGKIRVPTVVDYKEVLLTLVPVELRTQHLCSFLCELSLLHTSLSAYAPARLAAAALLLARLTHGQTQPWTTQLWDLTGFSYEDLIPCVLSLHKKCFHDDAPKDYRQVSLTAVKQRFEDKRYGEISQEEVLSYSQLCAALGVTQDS
YKVKHRLVFGADD [R5H]: 3.49
YKVKRRLVFGDDD [A11D]: 8.45
YKVKRRLVFNADD [G10N]: 8.62
YKVKRRLVFGHDD [A11H]: 9.14
YKVKRTLVFGADD [R6T]: 8.04
YKVKRRLVFGPDD [A11P]: 8.9

A few entries again (sample 4):
YKVKHRLVFGADD [R5H]: 3.49
YKVKRRLVFGDDD [A11D]: 8.45
YKVKRRLVFNADD [G10N]: 8.62
